{"data": "Measured values from different studies", "note": "Each numbered part is a random draw from the data of one study; scales do not carry over between parts. Substitutions count along the parent as printed."}
{"data": "Block 1", "target": "Histone acetyltransferase KAT6A, winged helix 2, GST fusion (KAT6A, Homo sapiens, UniProt Q92794, residues 85-181)", "technique": "protein binding microarray", "molecule type": "double-stranded DNA, one strand shown", "sample": "in vitro", "tested at": "not given", "notes": "8-mer, flanks averaged, mean of 2 arrays, mostly near background", "baseline": "not given", "reading": "higher = stronger binding", "Target sequence (chain)": "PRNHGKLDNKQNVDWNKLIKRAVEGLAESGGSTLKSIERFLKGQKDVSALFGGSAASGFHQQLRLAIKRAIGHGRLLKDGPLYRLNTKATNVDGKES"}
{"Sequence": "ATTGCGGA", "E-score": 0.0658}
{"Sequence": "AGCTCGAC", "E-score": 0.0555}
{"Sequence": "CCTTGCCA", "E-score": -0.00737}
{"Sequence": "GATGAACA", "E-score": 0.0771}
{"Sequence": "AGGAGATA", "E-score": -0.169}
{"Sequence": "AAGGGGCG", "E-score": -0.0323}
{"Sequence": "AGCTTCAG", "E-score": -0.111}
{"Sequence": "ACAGCGTG", "E-score": 0.17}
{"Sequence": "GCCCCCGA", "E-score": 0.00043}
{"Sequence": "AAAGTCGC", "E-score": 0.218}
{"Sequence": "GGCGAAGA", "E-score": 0.102}
{"Sequence": "CACTGTTC", "E-score": -0.0288}
{"Sequence": "AGCTCCCA", "E-score": -0.139}
{"Sequence": "GTCGTTGA", "E-score": -0.0981}
{"Sequence": "AAAGCGTA", "E-score": -0.216}
{"data": "Block 2", "target": "RNA binding protein fox-1 homolog 2, RRM domain, GST-SBP tag (RBFOX2, Homo sapiens, UniProt O43251-10, residues 100-194)", "technique": "RNA Bind-n-Seq", "molecule type": "RNA", "sample": "in vitro", "tested at": "365 nM", "notes": "natural RNA segment, single round, ends assumed", "baseline": "no-protein control", "reading": "higher = stronger binding", "shared flanks, not repeated": "GGGAGUUCUACAGUCCGACGAUC … UGGAAUUCUCGGGUGCCAA", "Construct (chain)": "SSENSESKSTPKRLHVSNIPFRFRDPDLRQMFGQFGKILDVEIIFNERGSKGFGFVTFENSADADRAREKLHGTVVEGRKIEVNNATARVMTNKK"}
{"Sequence": "AUAGAUUUACAAUAUGUAAGAUUAAGCUGUUGAUUUCAAUAGAGCUGAGAGCUUUUAGUAAAAAUAGGCAUUUAUUUAAUAUUUCCCUGUUCCUUUGGCAAGCUUUAUCA", "RBNS enrichment (R)": 0.494}
{"Sequence": "UCAUGAGUUUCUCAGAAACAUGUUUUUAACAAUUGUACUAUUUAGUCAUUGUCCAUUUACUAUAAUUUAUCUGACCAUUUCCCUACUGUAAAAUACUUAAGACGGUUUCU", "RBNS enrichment (R)": 0.376}
{"Sequence": "UGUCUUUUAAUAGAUAUAGGCAUCUGUUCAUCCACAUUUGAACACAGAGCUAAAGAAACGUUUUUUAAAAAACUACUUUUAAUCCAGAUCCAUGGAAUAAUAUGUAAUUC", "RBNS enrichment (R)": 0.357}
{"Sequence": "GCACCUGUCAUCCCAGUCCAUCCCACCGUUCCCUUACUGUACUCUGCAACUCACCAUCUGGAAUUAAGUGACAUGCUUUAAAACUUAAGAGUUUAGAAGAAACAAAAGGC", "RBNS enrichment (R)": 1.06}
{"Sequence": "AUUUCUAUGGUUGAAAUUCAUAGCCUUUCACUAUAGGAAAUGUUAAGAAAAAUUUAAACAGUUUAAGAUUAUAUAAUUUUUUUUUCUUUUCUAUAUUGAGGUGGCCACCA", "RBNS enrichment (R)": 0.78}
{"Sequence": "GUUAGGGCAACAAUGAAGGAGGACCCAGCCAAGCUAGAAGGAAUUUUGUGGAUGGGAGACAGCAGGAUUAGCUUCAGCUUGGGCUGGAGCAGUCAAUAUAGGAUCUCAGG", "RBNS enrichment (R)": 0.394}
{"Sequence": "AGUGCUUUUUCUUUUCUUCUGUUCAAAGAGGUCAUAUUACAAGGUUUUUUGAAAUUGUGAAUUCUAAAAAACAAAAAACAAACAAAAAAAUGUUGUAAAUAUAAUUCCAU", "RBNS enrichment (R)": 1.02}
{"Sequence": "UUAUGGAGGAUUGCAUGCAGGAUACACACUUCAUUAAAUCCUCUAAAAUCUAACUUUGAUUAAUUAAGUACAGGGUUAUUGCUGAUAGCCUCAUAACUCUACCACCAUUA", "RBNS enrichment (R)": 0.753}
{"data": "Block 3", "target": "Interferon regulatory factor 7, full length, phosphomimetic (IRF7, Homo sapiens, UniProt Q92985, residues 1-503, S101K/S471D/S472D/S475D/S476D/S477D/S483D/S484D/S487D)", "technique": "protein-binding microarray", "molecule type": "double-stranded DNA, one strand shown", "sample": "in vitro", "tested at": "250 nM", "notes": "60-bp whole probe", "together with": "salmon DNA 0.4 mg/ml", "baseline": "random background probes", "reading": "higher = stronger binding", "shared flanks, not repeated": "GCCTAGCAC … GTCTTGATTCGCTTGACGCTGCTG", "Target sequence (chain)": "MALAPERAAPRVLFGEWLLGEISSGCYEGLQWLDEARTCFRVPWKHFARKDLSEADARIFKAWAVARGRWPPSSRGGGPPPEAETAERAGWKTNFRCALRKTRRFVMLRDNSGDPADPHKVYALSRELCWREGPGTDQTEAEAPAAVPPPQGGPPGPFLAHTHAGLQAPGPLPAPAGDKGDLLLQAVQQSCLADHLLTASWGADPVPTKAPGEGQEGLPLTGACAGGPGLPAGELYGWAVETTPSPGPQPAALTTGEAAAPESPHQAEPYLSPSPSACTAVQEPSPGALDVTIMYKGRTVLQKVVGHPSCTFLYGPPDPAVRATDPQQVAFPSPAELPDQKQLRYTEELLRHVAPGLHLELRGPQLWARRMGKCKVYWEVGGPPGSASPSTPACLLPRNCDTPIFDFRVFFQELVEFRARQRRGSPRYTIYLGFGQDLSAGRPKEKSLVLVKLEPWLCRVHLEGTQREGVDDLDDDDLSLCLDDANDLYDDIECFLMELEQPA"}
{"Sequence": "TTTTTTTTCTGATCCATTTTGTGCTAG", "log fluorescence [z-score]": 1.44}
{"Sequence": "GACGGTTCCCGTTTCGGGACGTGCTAG", "log fluorescence [z-score]": 4.55}
{"Sequence": "TCATCATTGTTTTTCATACTGTGCTAG", "log fluorescence [z-score]": 0.704}
{"Sequence": "GACTTTTTAGATTTTTTTTCGTGCTAG", "log fluorescence [z-score]": 0.925}
{"Sequence": "GACGGACTGGACTTCCGGGACGTGCTA", "log fluorescence [z-score]": -0.856}
{"Sequence": "GACGGACTTGGGTATCGGGACGTGCTA", "log fluorescence [z-score]": -0.0635}
{"Sequence": "TCAAACTTCTCCACTGAAACTGTGCTA", "log fluorescence [z-score]": 0.365}
{"Sequence": "TTAGGTCTCATTCTCCTTTAGTGCTAG", "log fluorescence [z-score]": 1.26}
{"Sequence": "TTAGGTCTCGGACTGGGTAAGTGCTAG", "log fluorescence [z-score]": 0.387}
{"Sequence": "GACGGTATCGGACTCGGGACGTGCTAG", "log fluorescence [z-score]": 0.0854}
{"Sequence": "GACGGTCTCGGTCTCGGCACGTGCTAG", "log fluorescence [z-score]": 0.704}
{"Sequence": "ATGATGTGTCAAAAATTGCAGTGCTAG", "log fluorescence [z-score]": -0.448}
{"Sequence": "TTAGTTATCGGTCTCGGTTAGTGCTAG", "log fluorescence [z-score]": 1.81}
{"Sequence": "TTAGAACTGAGTACCGATTAGTGCTAG", "log fluorescence [z-score]": 0.256}
{"Sequence": "TACGAACTGGGGTTTCGAGACGTGCTA", "log fluorescence [z-score]": 1.74}
{"Sequence": "TTAGGACGGGGACTGGGTTAGTGCTAG", "log fluorescence [z-score]": 0.159}
{"data": "Block 4", "target": "CCNE1, cyclin fold, Cln2 fusion (human)", "technique": "yeast growth competition, sequencing", "sample": "yeast", "notes": "weak parent motif", "baseline": "not given", "reading": "higher = stronger binding", "parent": "RB1 docking peptide (human); PKPLKKLRFDIEG"}
{"Substitution": "PKPLPKLRFDIEG [K5P]", "normalised enrichment score": -0.577}
{"Substitution": "PKPLKKLSFDIEG [R8S]", "normalised enrichment score": 0.223}
{"Substitution": "PKPLKKLAFDIEG [R8A]", "normalised enrichment score": -0.174}
{"Substitution": "PKPLKKLRFDYEG [I11Y]", "normalised enrichment score": -0.0143}
{"Substitution": "PWPLKKLRFDIEG [K2W]", "normalised enrichment score": 0.154}
{"Substitution": "PKPLKKKRFDIEG [L7K]", "normalised enrichment score": 0.925}
{"Substitution": "PMPLKKLRFDIEG [K2M]", "normalised enrichment score": 0.119}
{"Substitution": "PKPLKKLRFDEEG [I11E]", "normalised enrichment score": 0.381}
{"Substitution": "YKPLKKLRFDIEG [P1Y]", "normalised enrichment score": 0.123}
{"Substitution": "PKPLKKLPFDIEG [R8P]", "normalised enrichment score": 0.637}
{"Substitution": "PKPLKKLRFRIEG [D10R]", "normalised enrichment score": 1.45}
{"Substitution": "PKPLKKLRADIEG [F9A]", "normalised enrichment score": 0.905}
{"Substitution": "PKPLKKLRFDIEF [G13F]", "normalised enrichment score": 0.704}
{"Substitution": "PKPLKKLRCDIEG [F9C]", "normalised enrichment score": -0.287}
{"Substitution": "PKPLKILRFDIEG [K6I]", "normalised enrichment score": 0.0155}
{"data": "Block 5", "target": "ABI1, truncated, D143A, DHFR fusion (Arabidopsis thaliana)", "technique": "DHFR PCA, deep sequencing", "sample": "yeast", "notes": "methotrexate growth selection, single substitutions", "together with": "(+)-ABA 0 µM", "baseline": "wild-type fitted maximum", "reading": "higher = stronger binding", "parent": "PYL1, truncated, DHFR fusion (Arabidopsis thaliana); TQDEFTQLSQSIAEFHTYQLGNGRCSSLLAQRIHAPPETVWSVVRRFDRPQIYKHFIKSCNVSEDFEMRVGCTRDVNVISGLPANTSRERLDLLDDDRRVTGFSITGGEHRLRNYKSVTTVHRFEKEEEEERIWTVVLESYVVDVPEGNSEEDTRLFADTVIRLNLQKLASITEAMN"}
{"Substitution": "R132P", "relative binding score [%]": 38.9}
{"Substitution": "R32H", "relative binding score [%]": 12.8}
{"Substitution": "C25L", "relative binding score [%]": 3.36}
{"Substitution": "R45F", "relative binding score [%]": 1.48}
{"Substitution": "R123F", "relative binding score [%]": -12.4}
{"Substitution": "L164W", "relative binding score [%]": 13.4}
{"Substitution": "D92F", "relative binding score [%]": 0.297}
{"Substitution": "F47H", "relative binding score [%]": -19.4}
{"Substitution": "Y141H", "relative binding score [%]": 4.53}
{"Substitution": "T160W", "relative binding score [%]": -2.2}
{"Substitution": "E4Q", "relative binding score [%]": 4.44}
{"Substitution": "L169P", "relative binding score [%]": 1.75}
{"Substitution": "L93C", "relative binding score [%]": 3.16}
{"Substitution": "L164I", "relative binding score [%]": -1.18}
{"Substitution": "L94Q", "relative binding score [%]": -2.85}
{"Substitution": "E174V", "relative binding score [%]": 1.66}
{"note": "Repeated from above (block 1):"}
{"Sequence": "AGCTCCCA", "E-score": -0.139}
{"Sequence": "AAGGGGCG", "E-score": -0.0323}
{"Sequence": "CACTGTTC", "E-score": -0.0288}
{"Sequence": "ACAGCGTG", "E-score": 0.17}
{"Sequence": "GTCGTTGA", "E-score": -0.0981}
{"Sequence": "AGCTTCAG", "E-score": -0.111}
{"Sequence": "AGGAGATA", "E-score": -0.169}
{"Sequence": "AAAGTCGC", "E-score": 0.218}
